Experimental data gathered from unrelated publications.
Compare with care: the assays were run in different laboratories.

CC(C)C[C@@H]1NC(=O)[C@H](C)NC(=O)[C@H](C)NC(=O)[C@H](NC(=O)[C@H](CO)NC(=O)[C@@H](CCCCN)NC(=O)[C@@H](CC(C)C)NC(=O)[C@@H](N)Cc2ccccc2)[C@H](C(N)=O)OC1=O
MIC (Bacillus subtilis Bacillus subtilis; ATCC 6051; tested as TFA salt): 0.5 to 1 mg/L

CC[C@H](C)[C@@H]1NC(=O)[C@H](CC(C)C)NC(=O)[C@@H](NC(=O)[C@H](CO)NC(=O)[C@H](CCCNC(=N)N)NC(=O)[C@@H](N)CO)CSSC[C@@H](C(=O)N[C@@H](CCC(N)=O)C(=O)N[C@@H](CCCNC(=N)N)C(=O)N[C@@H](CC(C)C)C(=O)N[C@@H](Cc2ccccc2)C(N)=O)NC(=O)[C@H](C(C)C)NC1=O
MIC (Listeria monocytogenes; broth microdilution; ATCC BAA-679 (EGD-e)): 100 mg/L

COc1ccc(C2=[N+]([O-])c3ccccc3N3CC(C)(C)CN=C23)cc1
MIC (Fusobacterium nucleatum; microbial growth; ATCC25586): 0.25 mg/L

CC[C@H](C)[C@H](NC(=O)[C@@H](NC(=O)CN)C(C)C)C(=O)N[C@@H](Cc1ccccc1)C(=O)N[C@@H](CC(N)=O)C(=O)N[C@@H](C)C(=O)N[C@@H](CC(C)C)C(=O)N[C@@H](CCCCN)C(=O)NCC(=O)N[C@H](C(=O)N[C@@H](C)C(=O)N[C@@H](CCCCN)C(=O)N[C@H](C(=O)N[C@H](C(=O)N[C@@H](C)C(=O)N[C@@H](C)C(=O)N[C@@H](CCC(N)=O)C(=O)N[C@@H](CC(C)C)C(=O)N[C@@H](CC(C)C)C(=O)N[C@@H](CCCCN)C(=O)N[C@@H](CCCCN)C(=O)N[C@@H](C)C(=O)N[C@@H](CCCNC(=N)N)C(=O)N[C@H]1CSSC[C@@H](C(=O)O)NC(=O)[C@H](CO)NC(=O)[C@H](CCCCN)NC(=O)[C@H](CC(=O)O)NC(=O)[C@H](CC(C)C)NC(=O)[C@H](CCCCN)NC1=O)C(C)C)[C@@H](C)O)C(C)C
MIC (Staphylococcus aureus; MRSA NCTC 12493, Mueller-Hinton broth; with: MgCl2 1 mM): 2 µM

C[N+]1=C2C(c3ccc([N+](=O)[O-])cc3)=[N+]([O-])c3ccccc3N2CCC1
MIC (Peptostreptococcus anaerobius): 0.125 mg/L

CCCCc1ccc(-c2nc(C)c(C(C)=NNC(=N)N)s2)cc1
MIC (Staphylococcus aureus; NRS19 VISA): 1.3 mg/L

CC[C@H](C)[C@@H]1NC(=O)CNC(=O)[C@H](CCCCN)NC(=O)[C@H](C)NC(=O)[C@H](CCC(=O)O)NC(=O)[C@H](Cc2ccccc2)NC(=O)[C@H](CO)NC(=O)[C@H](CC(C)C)NC(=O)[C@H](C(C)C)NC(=O)[C@H](CC(=O)O)NC(=O)[C@@H](NC(=O)[C@@H](NC(=O)[C@@H](N)C(C)C)[C@@H](C)O)CSSC[C@@H]2NC(=O)[C@H](CO)NC(=O)CNC(=O)CNC(=O)[C@H](CCCCN)NC(=O)[C@H](CCCCN)NC(=O)[C@H](CCCNC(=N)N)NC(=O)[C@H](CC(C)C)NC(=O)[C@H](C)NC(=O)[C@H]([C@@H](C)CC)NC(=O)[C@@H]3CSSC[C@@H](C(=O)N[C@@H](CCCNC(=N)N)C(=O)N[C@@H](CC(N)=O)C(=O)O)NC(=O)[C@H](C(C)C)NC(=O)[C@H](CSSC[C@H](NC(=O)[C@H](C)NC(=O)[C@H](CO)NC(=O)[C@H](Cc4c[nH]cn4)NC(=O)[C@H](CC(N)=O)NC(=O)[C@H](C(C)C)NC(=O)[C@H](C)NC1=O)C(=O)N[C@@H](C)C(=O)N[C@@H](CC(C)C)C(=O)N[C@@H](Cc1c[nH]cn1)C(=O)N3)NC(=O)[C@H](C(C)C)NC(=O)CNC(=O)[C@H](CC(N)=O)NC(=O)[C@H](CCC(N)=O)NC2=O
MIC (Malassezia furfur; broth microdilution; KCTC 7744; 32 °C, YM broth with 1% olive oil): 5 µM

CCCCCCCCCCCC[S+]([O-])CC1OC(OC2C(N)CC(N)C(OC3OC(CN)C(O)CC3N)C2O)C(O)C(N)C1O (mixture of isomers)
MIC (Listeria monocytogenes; ATCC 19115): 9.4 mg/L

[O-][N+]1=C(c2ccccc2)C2=NCCCN2c2ncccc21
MIC (Peptostreptococcus anaerobius): 0.25 mg/L

c1ccc(CCNC2CCCc3c2[nH]c2ccc(C4CCCCC4)cc32)cc1 (stereo not shown)
MIC (Micrococcus luteus; microbial growth, broth dilution; DSM1790): 1 mg/L

A few entries again:
CCCCc1ccc(-c2nc(C)c(C(C)=NNC(=N)N)s2)cc1
MIC (Staphylococcus aureus; NRS19 VISA): 1.3 mg/L
